Earlier results as cited in several papers.
Compare with care: the assays were run in different laboratories. Numbers after ± are the reported error.

For C=CC(O)c1ccc(OC)cc1 (stereo not drawn), the Km was 22 µM (male rat, kidney microsomes).
O=[N+]([O-])c1ccc(C(c2c[nH]c3ccc(I)cc23)c2c[nH]c3ccc(I)cc23)cc1 gave an IC50 of less than 10 µM (Leishmania donovani; promastigote).
With C/C=C1\NC(=O)[C@H](Cc2ccccc2)NC(=O)[C@H](C(C)C)NC(=O)[C@H](Cc2ccccc2)NC(=O)[C@H](CCC(N)=O)NC(=O)[C@H](Cc2c[nH]c3ccccc23)NC(=O)[C@H]2CSC[C@@H](C(=O)N[C@@H](CO)C(=O)O)NC(=O)[C@H](CSC[C@H]3NC(=O)[C@H]([C@@H](C)CC)NC(=O)[C@H](NC(=O)[C@H](Cc4c[nH]cn4)NC(=O)[C@@H](NC(=O)[C@@H](NC(=O)CNC(=O)[C@H](CO)NC(=O)CNC(=O)CNC(=O)[C@@H](N)CCCCN)C(C)C)[C@@H](C)CC)[C@H](C)SC[C@H](NC(=O)[C@H](CCC(=O)O)NC(=O)[C@H](Cc4c[nH]cn4)NC3=O)C(=O)N[C@@H](CC(N)=O)C(=O)N[C@@H](CCSC)C(=O)N[C@@H](CC(N)=O)C(=O)N2)NC1=O the IC50 was 0.785 µM (Lactococcus lactis subsp. cremoris; cell growth; HP).
CC(=O)O[C@H]1C2=C(C(=O)C(OC(=O)c3ccc(Cl)cc3)=C(C(C)C)C2=O)[C@@]2(C)CCCC(C)(C)[C@@H]2[C@@H]1O has a GI50 of no more than 5 µM (HL-60; cell growth).
For CCc1ccc(-n2cc(CC3CCSCC3)cc2-c2ccc(SC)cc2)cc1, the IC50 was 13.8 µM (Leishmania donovani; amastigotes).
With O=C(NO)[C@H](O)[C@H](O)COP(=O)(O)O the IC50 was greater than 389 µM (Trypanosoma brucei rhodesiense; parasite growth, whole parasite).
For CC(C)c1ccc(CNC(=O)/C=C/c2ccccc2)cc1, the IC50 was 33.7 µM (Leishmania infantum; parasite growth).
COc1ccc(C(=O)Nc2cc(OC)c(OC)c(OC)c2)cc1NC(=O)C(C)Br (stereo not drawn) has an IC50 of 1.46 ± 0.62 µM (Hepatitis C virus; viral replication).
CN1CCC(c2cc(-c3ccc(F)cc3)c(-c3ccncc3)[nH]2)CC1 gave an IC50 of 0.6 µM (Leishmania major; promastigotes).
COCCOCCOCCOCCC(=O)NCc1cc(CNC(=O)CCOCCOCCOCCOC)cc(-c2cc3cc4nc(c(OC)c5[nH]c(cc6nc(cc2[nH]3)CC6(C)C)cc5-c2cc(CNC(=O)CCOCCOCCOCCOC)cc(CNC(=O)CCOCCOCCOCCOC)c2)CC4(C)C)c1: “Qy/B absorption intensity ratio” 0.77 (PBS; room temperature).
COc1cc(O)c(-c2ccc(OC)c3c(O)cc(C)c(-c4cc(-c5c(O)cc(OC)c6c5C[C@H](C)N(C)[C@@H]6C)c5cc(C)cc(OC)c5c4O)c23)c2c1[C@@H](C)N(C)[C@H](C)C2 has an IC50 of 0.005 µM (Trypanosoma brucei rhodesiense; STIB900; trypomastigotes).
O=C(c1ccc2noc(-c3ccccc3)c2c1)N1CCCC(c2nnc3ccccn23)C1 (stereo not drawn) gave an IC50 of 18.6 µM (Plasmodium; parasite growth).
The IC50 of Nc1ncnc2c1ncn2Cc1cn(CP(=O)(O)O)nn1 is reported as 16 µM (hepatitis C virus; viral replication).
With CC(=O)O[C@@H]1[C@@H](OC(C)=O)C2=C(C(=O)C(O)=C(C(C)C)C2=O)[C@@]2(C)CCCC(C)(C)[C@H]12 the GI50 was 5 to 10 µM (MOLT-3).
With COc1ccc(CNC(=O)c2[nH]c3cc(C)sc3c2CN2CCCCC2)cc1 the IC50 was greater than 10 µM (Giardia duodenalis; growth; assemblage B BRIS/91/HEPU/1279; 48 h).

Excerpt of the above:
The IC50 of Nc1ncnc2c1ncn2Cc1cn(CP(=O)(O)O)nn1 is reported as 16 µM (hepatitis C virus; viral replication).
With CC(=O)O[C@@H]1[C@@H](OC(C)=O)C2=C(C(=O)C(O)=C(C(C)C)C2=O)[C@@]2(C)CCCC(C)(C)[C@H]12 the GI50 was 5 to 10 µM (MOLT-3).
